Published values collected from several papers.
Lines come from different studies, so protocols differ. Values joined by “and” are separate records of one study, mostly repeats; a detail may differ. ± marks the error that the study gave.
CDK2 with cyclin A: Cyclin-dependent kinase 2, with cyclin A (CDK2, Homo sapiens, UniProt P24941)
MBLAC2: MBLAC2 (Homo sapiens, UniProt Q68D91)
PPIA: Peptidyl-prolyl cis-trans isomerase A (PPIA, Homo sapiens, UniProt P62937)
WD repeat-containing protein 91 residues 392–747: WD repeat-containing protein 91, residues 392–747 (Homo sapiens, UniProt A4D1P6)
CDK2: Cyclin-dependent kinase 2 (CDK2, Homo sapiens, UniProt P24941)
Uncharacterized protein: Uncharacterized protein (Pelagibacter ubique, UniProt Q4FMA9)

CC1CCN(S(=O)(=O)c2ccc(Cl)c(C(=O)Nc3ccc(C(=O)O)cc3)c2)CC1
Kd (CDK2 with cyclin A): > 100 µM

[N-]=[N+]=NCC1OC(OC2C(N)CC(N)C(OC3OC(CN)C(O)C(O)C3O)C2O)C(O)C(N)C1O (stereo not shown)
Kd (RNA with DM2 repeats; RNA binding, fluorescence titration; 1 h, room temperature, 12 repeat copies): 0.68 ± 0.083 µM

O=C(CCCCCCC(=O)Nc1ccccc1)NO
Kd (MBLAC2; inhibitor, competition pulldown; SW620 and MV4-11 lysate; 1 h): > 30.2 µM

O=C(O[C@@H]1Cc2c(O)cc(O)cc2O[C@@H]1c1cc(O)c(O)c(O)c1)c1cc(O)c(O)c(O)c1
Kd (Beta-casein (CSN2, Bos taurus, UniProt P02666); binding, isothermal titration calorimetry; Bos taurus, ultrapure water; 298 K, no carrageenan): 93.5 µM

CC(C)(COP(=O)(O)OP(=O)(O)OC[C@H]1O[C@@H](n2cnc3c(N)ncnc32)[C@H](O)[C@@H]1OP(=O)(O)O)[C@@H](O)C(=O)NCCC(=O)NCCS
Kd (Acyl-coenzyme A thioesterase THEM4 (THEM4, Homo sapiens, UniProt Q5T1C6); competitor, competition MS pulldown; SW-620 cell lysate; with: photo-immobilized beads): 16.1 µM

CCCC(CCC)C(=O)O
Kd (HDAC1 (Homo sapiens, UniProt Q13547); inhibitor, competition pulldown; SW620 and MV4-11 lysate; 1 h): 523 µM

CC(C)(C)c1ccc(S(=O)(=O)/C=C/C#N)cc1
Kd (PPIA; HDX MALDI-MS): 16 µM

O=C(O)CN1CCN(CC(=O)O)CCN(CC(=O)O)CCN(CC(=O)O)CC1
Kd (calcium ion; isothermal titration calorimetry): < 0.1 µM

COc1c(C#N)cccc1CC(=O)Nc1ccc2c(c1)CCCN2C(=O)c1ccccc1
Kd (WD repeat-containing protein 91 residues 392–747; SPR): 7.3 µM and 7.2 µM

Nc1ncnc2c1ncn2[C@@H]1O[C@H](COP(=O)(O)OP(=O)(O)O)[C@@H](O)[C@H]1O
Kd (CKMT1A (Homo sapiens, UniProt P12532, E265Q); microscale thermophoresis; pH 7.0, E227Q mutant, no substrate): 33 ± 18 µM

O=S(=O)(NCCSc1ccccn1)c1ccc(Br)cc1
Kd (CDK2 with cyclin A): > 100 µM

Nc1ncnc2c1ncn2[C@@H]1O[C@H](CO[P@](=O)(O)O[P@](=O)(O)O[P@@](=O)(O)S)[C@@H](O)[C@H]1O
Kd (GUK1 (Homo sapiens, UniProt Q16774, S13A); binding, ITC; 25 °C): 110 ± 10 µM

O=C(O)CCN1C(=O)C(=Cc2ccc(F)cc2)SC1=S
Kd (PPIA; HDX MALDI-MS): > 40 µM

Cn1cc(-c2ccc(-c3cncc(Cl)c3N3CCC4(CCNC4=O)CC3)cc2)cn1
fold change in expression (COLO 205; microarray, measured: OXTR; concentration not given, 6 h, gene set OTR; reference: untreated cells): -1.43

CN1CCN(C(=O)CN(c2cc(C(F)(F)F)ccc2Cl)S(=O)(=O)c2ccccc2)CC1
Kd (CDK2 with cyclin A): > 100 µM

NCCCC(=O)O
Kd (SLC6A6 (Homo sapiens, UniProt P31641, G62A); microscale thermophoresis; G62A mutant): no binding

COc1cc(-c2nnc(SCC(N)=O)n2C)cc(OC)c1OC
Kd (CDK2; binding): > 100 µM

Nc1nc2c(ncn2[C@@H]2O[C@H](COP(=O)(O)O)[C@@H](O)[C@H]2O)c(=O)[nH]1
Kd (GUK1 (Homo sapiens, UniProt Q16774, T83A); binding, ITC; 25 °C): 104 ± 2 µM

Nc1ccccc1NC(=O)c1ccc(CNc2nccc(-c3cccnc3)n2)cc1
Kd (MBLAC2; inhibitor, competition pulldown; SW620 and MV4-11 lysate; 1 h): > 30.2 µM

OC[C@H]1OC(O)[C@H](O)[C@@H](O)[C@@H]1O (stereo partly shown)
Kd (Interferon regulatory factor 6 (IRF6, Homo sapiens, UniProt O14896, P104G); binding, microscale thermophoresis): 1170 ± 600 µM

N#Cc1cccc(OCc2cn(-c3ccc(C(=O)N4CCC(C#N)CC4)cc3)nn2)c1
Kd (WD repeat-containing protein 91 residues 392–747; SPR): 8.5 µM and 7 µM

CCCCCCCC(=O)OC[C@H](COP(=O)(O)O[C@@H]1[C@H](O)[C@H](O)[C@@H](OP(=O)(O)O)[C@H](OP(=O)(O)O)[C@H]1O)OC(=O)CCCCCCC
Kd (Kv7.2/Kv7.3(EEE) mutant channel; channel opening, activator, model fit of open probability; model 5, K3, efficacy fixed to WT): 23.1 µM

CC(=O)N(C1=C(Cl)C(=O)c2ccccc2C1=O)C1CCCCC1
Kd (PPIA; HDX MALDI-MS): 2 µM

O=C1c2ccccc2C(=O)N1CCCc1nc(-c2cccc([N+](=O)[O-])c2)no1
Kd (CDK2 with cyclin A): > 100 µM

O=C(NO)c1cnc(NC2(c3ccccc3)CC2)nc1
Kd (MBLAC2; inhibitor, competition pulldown; SW620 and MV4-11 lysate; 1 h): > 30.2 µM

CC(=O)c1cccc(OCc2cn(-c3ccc(C(=O)N4CCC(C#N)CC4)cc3)nn2)c1
Kd (WD repeat-containing protein 91 residues 392–747; SPR): 21 µM and 18 µM

O=S(=O)(O)C[C@H](O)CO
Kd (Uncharacterized protein; isothermal titration calorimetry; Candidatus Pelagibacter ubique; with: CaCl2 10 mM): 5.9 µM and 3.98 µM

COc1ccc(-c2cncc(C(=O)N[C@@H]3CCc4c(C#N)cccc43)c2)c(C)c1
Kd (WD repeat-containing protein 91 residues 392–747; SPR): 8.4 µM and 8.2 µM

CC1=C(C)C(=O)c2ccccc2C1=O
Kd (Reaction center protein L chain, QB site (pufL, Cereibacter sphaeroides, UniProt P0C0Y8); QB site binding, competitive inhibitor): > 100 µM

O=P([O-])([O-])O.[Na+].[Na+]
Kd (SAR11_1179 Candidatus Pelagibacter ubique; isothermal titration calorimetry; with: Na2SO4 28 mM): 0.711 µM and 0.94 µM and 0.97 µM and 0.948 µM

C=CC(=O)N1CCN(c2nc(OC[C@@H]3CCCN3C)nc3c(F)c(-c4nc(N)cc(C)c4C(F)(F)F)c(Cl)cc23)[C@@H](C)C1
Kd (GTPase KRas, GDP-bound (KRAS, Homo sapiens, UniProt P01116, Q61H); SPR): 0.78 ± 0.038 µM

CC[C@H](CO)Nc1nc(NCc2ccc(-c3ccccn3)cc2)c2ncn(C(C)C)c2n1
Kd (PIP4K2A (Homo sapiens, UniProt P48426); binding, competition affinity chromatography; SH-SY5Y cell extract): 8.68 µM

O=C(/C=C/c1ccc(CN(CCO)CCc2c[nH]c3ccccc23)cc1)NO
Kd (MBLAC2; inhibitor, competition pulldown; SW620 and MV4-11 lysate; 1 h): 2.09 µM

COc1ccc(-c2nnc(SCC(=O)Nc3c(F)cc(F)cc3Br)n2C)cc1
Kd (CDK2 with cyclin A): > 100 µM

COc1cc([N+](=O)[O-])ccc1N1C(=O)C2C3C=CC(C)(O3)C2C1=O (stereo not shown)
Kd (PPIA; HDX MALDI-MS): 4 µM

CC(=O)N[C@H]1[C@H](O[C@H]2[C@H](O)[C@@H](NC(C)=O)[C@H](O[C@H]3[C@H](O)[C@@H](NC(C)=O)[C@H](O[C@H]4[C@H](O)[C@@H](NC(C)=O)C(O)O[C@@H]4CO)O[C@@H]3CO)O[C@@H]2CO)O[C@H](CO)[C@@H](O[C@@H]2O[C@H](CO)[C@@H](O[C@@H]3O[C@H](CO)[C@@H](O[C@@H]4O[C@H](CO)[C@@H](O[C@@H]5O[C@H](CO)[C@@H](O)[C@H](O)[C@H]5NC(C)=O)[C@H](O)[C@H]4NC(C)=O)[C@H](O)[C@H]3NC(C)=O)[C@H](O)[C@H]2NC(C)=O)[C@@H]1O (stereo partly shown)
Kd (uncharacterized protein (Medicago truncatula, UniProt G7JRT6); binding): 171 µM

O=C(Nc1cc(C2CCCCC2)[nH]n1)c1ccc(Br)cc1
Kd (CDK2 with cyclin A; ITC; 298 K, with: cyclin A): > 100 µM

CCCCN(Cc1ccc(C(=O)NO)cc1)C(=O)Nc1ccccc1
Kd (MBLAC2; inhibitor, competition pulldown; SW620 and MV4-11 lysate; 1 h): 0.0256 µM

Cc1cc(C)c(S(=O)(=O)N(C)CC(=O)N2CCC(C(N)=O)CC2)c(C)c1
Kd (CDK2; binding): > 100 µM

O=C(CCCCCN1C(=O)c2cccc3cccc(c23)C1=O)NO
Kd (MBLAC2; inhibitor, competition pulldown; SW620 and MV4-11 lysate; 1 h): 10.9 µM

CC[C@H](C)[C@H](NC(=O)[C@H](CC(C)C)NC(=O)[C@H](Cc1ccc(OP(=O)(O)O)cc1)NC(=O)[C@H](CCC(=O)O)NC(=O)[C@H](CC(=O)O)NC(=O)[C@H](C)NC(=O)[C@H](CC(=O)O)NC(=O)[C@@H](NC(=O)[C@@H](NC(=O)[C@H](CC(=O)O)NC(=O)[C@H](CC(=O)O)NC(=O)[C@H](CCSC)NC(=O)c1ccc2c(c1)C(=O)OC21c2ccc(N(C)C)cc2Oc2cc(N(C)C)ccc21)C(C)C)C(C)C)C(=O)N1CCC[C@H]1C(=O)N[C@@H](CCC(N)=O)C(=O)N[C@@H](CCC(N)=O)C(=O)NCC(=O)N[C@@H](Cc1ccccc1)C(=O)N[C@@H](CC(=O)O)C(=O)O
Kd (Crk-like protein, SH2 domain (Homo sapiens, UniProt P46109); binding): 0.998 µM

O=C(/C=C/c1cccc(S(=O)(=O)Nc2ccccc2)c1)NO
Kd (MBLAC2; inhibitor, competition pulldown; SW620 and MV4-11 lysate; 1 h): > 30.2 µM

O=S(=O)(O)CCO
Kd (Uncharacterized protein; isothermal titration calorimetry; Candidatus Pelagibacter ubique; with: CaCl2 10 mM): 0.479 µM and 0.217 µM and 0.477 µM

Repeated from above:
N#Cc1cccc(OCc2cn(-c3ccc(C(=O)N4CCC(C#N)CC4)cc3)nn2)c1
Kd (WD repeat-containing protein 91 residues 392–747; SPR): 8.5 µM and 7 µM

Nc1ccccc1NC(=O)c1ccc(CNc2nccc(-c3cccnc3)n2)cc1
Kd (MBLAC2; inhibitor, competition pulldown; SW620 and MV4-11 lysate; 1 h): > 30.2 µM

COc1cc(-c2nnc(SCC(N)=O)n2C)cc(OC)c1OC
Kd (CDK2; binding): > 100 µM

CCCCN(Cc1ccc(C(=O)NO)cc1)C(=O)Nc1ccccc1
Kd (MBLAC2; inhibitor, competition pulldown; SW620 and MV4-11 lysate; 1 h): 0.0256 µM
